# Assay results of several laboratories.
# Compare with care: the assays were run in different laboratories. Numbers after ± are the reported error.
# Organism: Escherichia coli
Structure (SMILES),assay,test system,conditions,scale,endpoint,result
C[n+]1nn(CCCCCCCCN2C(=O)C=CC2=O)cc1COCCCCCCCCN1C(=O)C=CC1=O,"growth, turbidity OD600",ΔtolC,24 h,,IC50,> 100 µM
CN(C)S(=O)(=O)c1ccc(S(=O)(=O)N2CCC(n3c(=O)[nH]c4ccccc43)CC2)cc1,,Keio wild type,"concentration not given, 24 h",,streptomycin concentration,3.92 µg/mL
C=CCN1C(=O)C(CC=C)(C(=O)OCC)Oc2cc(F)ccc21 (centres unmarked),bacterial growth,BL21(DE3),"100 µM, 4 h",,OD600,> 0.9
CC[C@H](C)CCCCC(=O)N[C@@H](CCN)C(=O)N[C@H](C(=O)N[C@@H](CCN)C(=O)N[C@H]1CCNC(=O)[C@H]([C@@H](C)O)NC(=O)[C@H](CCN)NC(=O)[C@H](CCN)NC(=O)[C@H](CC(C)C)NC(=O)[C@@H](CC(C)C)NC(=O)[C@H](CCN)NC1=O)[C@@H](C)O,daily serial passaging,ATCC 8739,"highest sub-MIC, 34 days",baseline: initial MIC,MIC fold change,1.74
C=C(C)C(=O)NCCCCCCCCOCc1cn(CCCCCCCCNC(=O)C(=C)C)nn1,"growth, turbidity OD600",ΔtolC,24 h,,IC50,> 100 µM
CC1(C)C(NC(=O)C(=NOC2(C(=O)O)CC2)c2csc(N)n2)C(=O)N1OS(=O)(=O)O (centres unmarked),,"ATCC 2469 NDM-1, ICR mouse systemic infection",intravenous,,ED50,8.65 mg/kg
C=C(C)C(=O)NCCCCCCOCc1cn(CCCCCCNC(=O)C(=C)C)nn1,"growth, turbidity OD600",ΔtolC,24 h,,IC50,> 100 µM
C[C@@H](N)[C@H](O)CCCCCCCC(=O)CCCCCCCCCCCCCC[C@@H](O[C@@H]1O[C@H](CO)[C@@H](O)[C@H](O)[C@H]1O)[C@@H](N)CO,"microbial growth, resazurin",ATCC10536,50 µM,,inhibition,96%
CO[C@@H](C(N)=O)[C@H](NC(=O)c1ccc(NC(=O)[C@@H](N)Cc2ccccc2)cc1)C(=O)Nc1ccc(C(=O)Nc2ccc(C(=O)Nc3ccc(C(=O)O)c(O)c3OC(C)C)c(O)c2OC(C)C)cc1,,clones expressing transporters,concentration not given,baseline: empty vector,MIC fold change,≤ 4 fold
COc1ccc(CC2[NH2+]CCc3cc(OC)c(OC)cc32)cc1OC.[Cl][Fe-]([Cl])([Cl])[Cl] (centres unmarked),,,"24 h, 37 °C",,MIC50,927 µM
O=C1C=CC(=O)N1CCCCCCCCOCc1cn(CCCCCCCCN2C(=O)C=CC2=O)nn1,"growth, turbidity OD600",ΔtolC,24 h,,IC50,> 100 µM
CCC(C)CCC(=O)N[C@H](CCN)C(=O)N[C@@H](CCN)C(=O)N[C@@H](CCN)C(=O)N[C@@H](CC(C)C)C(=O)N[C@H](Cc1ccccc1)C(=O)N[C@@H](CCN)C(=O)N[C@@H](CCN)C(=O)N[C@@H](CC(C)C)C(N)=O (some centres unmarked),,ATCC 10546,"24 h, 37 °C",,MBC,8 µM
CC[C@H](C)[C@H](N)C(=O)N[C@@H](CC(C)C)C(=O)N[C@@H](CO)C(=O)N[C@@H](C)C(=O)N[C@@H](C)C(=O)N[C@@H](CCC(=O)O)C(=O)N[C@@H](CO)C(=O)NCC(=O)N[C@H](C(=O)N[C@@H](CS)C(=O)N[C@@H](CO)C(=O)N[C@@H](CC(C)C)C(=O)N[C@H](C(=O)NCCCCCC(=O)N[C@@H](Cc1c[nH]c2ccccc12)C(N)=O)C(C)C)[C@@H](C)CC,,"K-12 MG1655, MHB","concentration not given, 37 °C",baseline: untreated,relative growth rate,0.356
C=CS(=O)(=O)NCCCCCCOCc1cn(CCCCCCNS(=O)(=O)C=C)nn1,"growth, turbidity OD600",ΔtolC,24 h,,IC50,> 100 µM
CCCC(=O)OCCSCCC(=O)N[C@H](CCN)C(=O)N[C@@H](CCN)C(=O)N[C@@H](CCN)C(=O)N[C@@H](CC(C)C)C(=O)N[C@H](Cc1ccccc1)C(=O)N[C@@H](CCN)C(=O)N[C@@H](CCN)C(=O)N[C@@H](CC(C)C)C(N)=O,,ATCC 10546,"24 h, 37 °C",,MBC,16 µM
CC[C@H](C)[C@H](NC(=O)[C@H](CCCCN)NC(=O)[C@H](CC(=O)O)NC(=O)[C@H](CC(C)C)NC(=O)[C@@H](NC(=O)[C@H](CC(N)=O)NC(=O)[C@H](CC(C)C)NC(=O)[C@@H](NC(=O)[C@H](Cc1ccccc1)NC(=O)[C@H](CCCCN)NC(=O)[C@H](CCCCN)NC(=O)CNC(=O)[C@H](C)NC(=O)[C@H](CC(N)=O)NC(=O)[C@H](CCCCN)NC(=O)[C@H](Cc1ccccc1)NC(=O)[C@H](CC(N)=O)NC(=O)[C@H](CCC(=O)O)NC(=O)[C@H](Cc1c[nH]c2ccccc12)NC(=O)[C@H](CC(C)C)NC(=O)[C@@H](N)CO)[C@@H](C)CC)[C@@H](C)CC)C(=O)N[C@@H](CCCNC(=N)N)C(=O)N[C@H]1CSSC[C@@H](C(=O)N[C@@H](CCCNC(=N)N)C(=O)N[C@H](C(=O)O)[C@@H](C)O)NC(=O)CNC(=O)CNC(=O)[C@H](C)NC(=O)[C@H](C(C)C)NC(=O)[C@H](CCCNC(=N)N)NC1=O,colony counts,ATCC 8739,1 x MIC,,time to eradication,30 min
CC(=O)N[C@@H](CC(C)C)C(=O)N[C@H]1CSSC[C@@H](C(=O)N2CCC[C@H]2C(N)=O)NC(=O)[C@H]([C@@H](C)O)NC(=O)[C@H](C(C)C)NC(=O)[C@H]([C@@H](C)O)NC(=O)CNC(=O)[C@H](CC(C)C)NC(=O)[C@H](Cc2ccccc2)NC(=O)[C@H](Cc2ccc(O)cc2)NC(=O)[C@H](CC(C)C)NC(=O)[C@H](CCCCN)NC(=O)[C@H](Cc2ccccc2)NC(=O)[C@H](CCCNC(=N)N)NC(=O)[C@H](CCC(N)=O)NC(=O)[C@H](CC(C)C)NC(=O)[C@H](CCCCN)NC(=O)[C@@H]2CCCN2C(=O)[C@H](CCCCN)NC(=O)[C@H](C(C)C)NC(=O)[C@H](CCCCN)NC(=O)[C@H](Cc2ccc(O)cc2)NC(=O)[C@H]([C@@H](C)O)NC1=O,,,"2.5 µM, 2 h, 37 °C",baseline: untreated,killed bacteria,100%
O=C(O)CCc1c(C(=O)O)[nH]c2ccccc12,,DH5α with VIM-2 plasmid,"10 µg/mL, with: meropenem",,MIC of meropenem,2 µg/mL
C#CCCCC(=O)N[C@H]1CCOC1=O,"LuxR reporter, antagonist",DH5α sensor strain,"20 µM, with: OHHL 200 nM",,inhibition,69%
CC(C)C[C@@H](NC(=O)[C@H](NC(=O)[C@@H](CCCCN)NC(=O)[C@@H](CCCCN)NC(=O)[C@@H](CC(C)C)NC(=O)[C@@H](Cc1c[nH]c2ccccc12)NC(=O)[C@@H](CCCCN)NC(=O)[C@@H](Cc1c[nH]c2ccccc12)NC(=O)[C@@H](CC(C)C)NC(=O)[C@@H](CCCCN)NC(=O)[C@@H](CCCCN)NC(=O)[C@H](N)C(C)C)C(C)C)C(N)=O,,,"24 h, 37 °C, Mueller-Hinton broth, no additive",,MIC,8 µM
CC[C@H](C)[C@H](NC(=O)[C@H](C)NC(=O)CNC(=O)[C@H](C)NC(=O)[C@H](CCCCN)NC(=O)[C@H](CO)NC(=O)[C@H](C)NC(=O)[C@H](CCSC)NC(=O)CN)C(=O)N[C@@H](C)C(=O)NCC(=O)N[C@@H](CCCCN)C(=O)N[C@H](C(=O)N[C@@H](C)C(=O)N[C@@H](CCCCN)C(=O)N[C@H](C(=O)N[C@@H](C)C(=O)N[C@@H](CC(C)C)C(=O)N[C@@H](CCCCN)C(=O)N[C@@H](C)C(=O)N[C@@H](CC(C)C)C(N)=O)C(C)C)[C@@H](C)CC,,CFT073 ampicillin-resistant,with: ampicillin,,combination index,0.91
CC[C@H](C)[C@H](NC(=O)[C@H](CCCNC(=N)N)NC(=O)[C@H]1CCCN1C(=O)[C@H](Cc1ccc(O)cc1)NC(=O)[C@@H](NC(=O)[C@@H](NC(=O)[C@H](CCCNC(=N)N)NC(=O)[C@H](Cc1ccccc1)NC(=O)[C@@H](NC(=O)[C@H](Cc1c[nH]c2ccccc12)NC(=O)[C@H](Cc1c[nH]c2ccccc12)NC(=O)c1ccccc1)C(C)C)C(C)C)C(C)C)C(=O)N[C@H](C(=O)N[C@@H](Cc1ccc(O)cc1)C(=O)N[C@H](C(=O)N[C@@H](CCCNC(=N)N)C(=O)N[C@@H](CCCNC(=N)N)C(=O)N[C@@H](CCCNC(=N)N)C(=O)N[C@@H](Cc1c[nH]c2ccccc12)C(=O)N[C@H](C(=O)NCC(=O)N1CCC[C@H]1C(=O)N[C@@H](CCCCN)C(=O)N[C@@H](CCCCN)C(N)=O)[C@@H](C)O)C(C)C)C(C)C,bacterial growth,DH5α,50% growth inhibition,,IC50,21.5 µM
O=CCNCCOn1c(=O)n(OCCNCCO)c(=O)n(OCCNCCOn2c(=O)n(OCCNCCO)c(=O)n(OCCNCCO)c2=O)c1=O,broth microdilution,,,,MLC,4 ± 2 µg/mL
